Assay results of several laboratories.
Each line is one published result; not all experiments were run side by side. ± marks the error that the study gave.
Cell line: RAW264.7

| SMILES | test | setting | IC50 |
| --- | --- | --- | --- |
| CC1=C(C)C(=O)O[C@@H]([C@@H](C)C2=C[C@@H](O)[C@]3(O)[C@@H]4C[C@@H](O)[C@@]5(O)CC=CC(=O)[C@]5(C)[C@H]4CC[C@]23C)C1 | NO release, inhibitor, Griess | LPS-stimulated | 38.7 µM |
| Oc1ccc(-c2cc(-c3ccc(OCCN4CCCCC4)cc3)n(-c3ccc(O)cc3)n2)cc1 | TNF-alpha production, inhibitor | with: CpG-DNA | 1.03 ± 0.8 µM |
| O=C1CCNCN1Cc1ccccc1 | NO release, inhibitor, Griess | 24 h, LPS-stimulated | 186 µM |
| O=c1c2ccccc2oc2nc(N3CCCCC3)sc12 | IL-1β release, inhibitor, ELISA | 48 h, LPS-stimulated | 9.64 µM |
| CC(C)=CCc1cc([C@@H]2CC(=O)c3ccc(O)c(CC=C(C)C)c3O2)c(O)c(CC=C(C)C)c1O | nitric oxide production | up to 100 µM, with: LPS | inactive |
| CCCCn1cc(C(=O)O)c(=O)c2cc(F)c3[nH]nnc3c21 | NO release, inhibitor, Griess | LPS-stimulated | 2160 µM |
| CCc1c(-c2ccc(O)cc2)nn(-c2ccc(O)cc2)c1-c1ccc(OCCN2CCCCC2)cc1 | cell growth or viability, resazurin |  | 3.89 µM |
| CC/C=C\C/C=C\C/C=C\CCCCCCCC(=O)OC[C@H](CO[C@@H]1O[C@H](CO)[C@H](O)[C@H](O)[C@H]1O)OC(=O)CCCCCCC/C=C\C/C=C\C/C=C\CC | NO release, inhibitor, Griess | 20 h, LPS-stimulated | 7.7 µM |
| CCOC(=O)c1csc2nc(-c3cccc(NC(=O)c4cc5cc(NC(=O)C(C)Cl)ccc5n4Cc4ccc(C(F)(F)F)cc4)c3)cn12 (stereo not drawn) | IL-6 release, inhibitor, ELISA | 24 h, LPS-stimulated | 2.29 µM |
| CCC(=O)NCc1ccccc1 | NO release, inhibitor, Griess | 24 h, LPS-stimulated | > 200 µM |
| CC[C@@]1(C)CC[C@H]2[C@@](C)(CC[C@@]3(C)[C@@H]4CC(C)(C)CC[C@]4(C)CC[C@]23C)[C@@H]1CCC(=O)O | NO release, inhibitor, Griess | LPS-stimulated | 71.9 µM |
| CC(C)C1=C(O)C(=O)C2=C(C=C[C@H]3C(C)(C)CCC[C@]23C)C1=O | NO release, inhibitor | 24 h, LPS-stimulated | > 159 µM |
| CCCCn1cc(C(=O)O)c(=O)c2cc(F)c(N)c([N+](=O)[O-])c21 | NO release, inhibitor, Griess | LPS-stimulated | 71.2 µM |
| COC(=O)[C@H](CSSC(C)(C)[C@H](NC(=O)[C@H](CCC(=O)NC[C@H](O)[C@@H](O)[C@H](O)[C@H](O)CO)NC(=O)[C@H](CCC(=O)O)NC(=O)[C@H](CCC(=O)NC[C@H](O)[C@@H](O)[C@H](O)[C@H](O)CO)NC(=O)[C@H](CCC(=O)O)NC(=O)[C@H](CCC(=O)NC[C@H](O)[C@@H](O)[C@H](O)[C@H](O)CO)NC(=O)CC[C@H](NC(=O)c1ccc(NCc2cnc3nc(N)[nH]c(=O)c3n2)cc1)C(=O)O)C(=O)O)NC(=O)CC[C@H](NC(=O)c1ccc(NCc2cnc3nc(N)nc(N)c3n2)cc1)C(=O)O | cell viability, XTT | 2 h pulse, 70 h chase | 0.0029 µM |
| COc1c(CC=C(C)C)c(O)cc2c1[C@@H]1Oc3c(ccc(O)c3CC=C(C)C)[C@@H]1CO2 | nitric oxide production | up to 100 µM, with: LPS | inactive |
| CCn1cc(/C=C/c2ccc3ccccc3[n+]2CC)c2ccccc21 | cell growth or viability, MTT | 24 h | 5.18 µM |
| CN(C)C1CCN(c2nc3oc4ccccc4c(=O)c3s2)CC1 | IL-6 release, inhibitor, ELISA | 48 h, LPS-stimulated | 12.6 µM |
| COc1ccc(CCNC(=O)/C=C/c2ccc(O)c(O)c2)cc1OC | NO release, inhibitor, Griess | 24 h, LPS-stimulated | 5.58 µM |

| SMILES | test | setting | IC50 |
| --- | --- | --- | --- |
| CC(=O)O[C@H]1CC[C@]2(C)[C@H]3CC=C4[C@@H]5CC(C)(C)CC[C@]5(C(=O)O)CC[C@@]4(C)[C@]3(C)CC[C@H]2C1(C)C | NO release, inhibitor, Griess | LPS-stimulated | > 100 µM |
| COc1cc2c(cc1O)[C@]1(O)C(=O)c3c(O)cc4c(c3O[C@@H]1CO2)C=CC(C)(C)O4 | cell growth or viability, MTT |  | 45.3 µM |
| O=C(CCc1ccc(O)c(O)c1)NCCc1ccccc1 | NO release, inhibitor, Griess | 24 h, LPS-stimulated | > 5 µM |
| CO[C@H]1CC(=O)[C@]2(C)[C@H]3CC[C@]4(C)C([C@H](C)[C@H]5CC(C)=C(C)C(=O)O5)=C[C@H](OC(C)=O)[C@@]4(O)[C@@H]3C[C@H]3O[C@]32C1 | NO release, inhibitor, Griess | LPS-stimulated | 25.7 µM |
| CC(C)(O)[C@@H]1CC[C@](C)([C@H]2CC[C@]3(C)[C@@H]2CC[C@@H]2[C@@]4(C)CCC(=O)C(C)(C)[C@@H]4CC[C@]23C)O1 | NO release, inhibitor, Griess | LPS-stimulated | > 100 µM |
| COc1ccc2c3c(oc2c1CC=C(C)C)-c1cc(CC=C(C)C)c(O)cc1OC3 | nitric oxide production | up to 100 µM, with: LPS | inactive |
| O=C(/C=C/c1ccc(O)c(O)c1)NCCc1ccccc1 | NO release, inhibitor, Griess | 24 h, LPS-stimulated | 2.38 µM |
| CCCCC/C=C\C/C=C\CCCCCCCC(=O)OC[C@H](CO[C@@H]1O[C@H](CO)[C@H](O)[C@H](O)[C@H]1O)OC(=O)CCCCCCC/C=C\C/C=C\CCCCC | NO release, inhibitor, Griess | 20 h, LPS-stimulated | 8 µM |
| O=c1c2ccccc2oc2nc(N3CCC(N4CCCCC4)CC3)sc12 | IL-1β release, inhibitor, ELISA | 48 h, LPS-stimulated | 24.4 µM |
| CC1C(O)CC2(CO)CCC3(C)C(=CCC4C(C)(CCC(=O)O)C(C(C)(O)CO)CCC43C)C2C1C (stereo not drawn) | NO production, Griess | 24 h, pre-treatment before HMGB1, with: HMGB1 0.5 µg/mL | 47.2 ± 7.62 µM |
| CC(C)=CCc1c(O)ccc2c1O[C@H]1c3cc4c(cc3OC[C@@H]21)OC(C)(C)C=C4 | nitric oxide production | up to 100 µM, with: LPS | inactive |
| CC(C)=CCc1c(O)c(CC=C(C)C)c2occ(-c3ccc(O)c(O)c3)c(=O)c2c1O | cell growth or viability, MTT |  | 43.3 µM |
| CCOC(=O)c1csc2nc(-c3cccc(NC(=O)c4cc5cc(NC(=O)c6ccco6)ccc5n4Cc4ccc(C(F)(F)F)cc4)c3)cn12 | TNF-α release, inhibitor, ELISA | 24 h, LPS-stimulated | 22 µM |
| Oc1ccc(-c2cc(-c3ccc(OCCN4CCCCC4)cc3)n(-c3ccc(O)cc3)n2)cc1 | cell growth or viability, resazurin |  | 11.7 µM |
| COc1c2c(cc3c1[C@@H]1Oc4c(ccc(O)c4CC=C(C)C)[C@@H]1CO3)OC(C)(C)C=C2 | nitric oxide production | up to 100 µM, with: LPS | inactive |
| CCN(CC)c1nc2oc3ccccc3c(=O)c2s1 | IL-1β release, inhibitor, ELISA | 48 h, LPS-stimulated | 17 µM |
| C=CC(=O)Nc1ccc2c(c1)cc(C(=O)Nc1cccc(-c3cn4c(C(=O)OCC)csc4n3)c1)n2Cc1ccc(C(F)(F)F)cc1 | IL-6 release, inhibitor, ELISA | 24 h, LPS-stimulated | 1.44 µM |
| COc1ccc2c(c1CC=C(C)C)O[C@H]1c3cc(CC=C(C)C)c(O)cc3OC[C@@H]21 | nitric oxide production | up to 100 µM, with: LPS | inactive |

Repeated from above:
| SMILES | test | setting | IC50 |
| --- | --- | --- | --- |
| CC1=C(C)C(=O)O[C@@H]([C@@H](C)C2=C[C@@H](O)[C@]3(O)[C@@H]4C[C@@H](O)[C@@]5(O)CC=CC(=O)[C@]5(C)[C@H]4CC[C@]23C)C1 | NO release, inhibitor, Griess | LPS-stimulated | 38.7 µM |
| Oc1ccc(-c2cc(-c3ccc(OCCN4CCCCC4)cc3)n(-c3ccc(O)cc3)n2)cc1 | cell growth or viability, resazurin |  | 11.7 µM |
| CC(C)=CCc1c(O)ccc2c1O[C@H]1c3cc4c(cc3OC[C@@H]21)OC(C)(C)C=C4 | nitric oxide production | up to 100 µM, with: LPS | inactive |
| CC(C)=CCc1c(O)c(CC=C(C)C)c2occ(-c3ccc(O)c(O)c3)c(=O)c2c1O | cell growth or viability, MTT |  | 43.3 µM |
